Results collected from several papers.
± marks the error that the study gave.
lecA: PA-I galactophilic lectin (lecA, Pseudomonas aeruginosa, UniProt Q05097)
Sequence of UniProt Q05097 (whole entry, looked up): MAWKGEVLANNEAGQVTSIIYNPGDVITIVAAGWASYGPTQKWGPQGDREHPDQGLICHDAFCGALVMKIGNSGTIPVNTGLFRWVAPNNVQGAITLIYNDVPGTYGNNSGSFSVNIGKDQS
Sequence of UniProt P01024 (whole entry, unmodified, looked up): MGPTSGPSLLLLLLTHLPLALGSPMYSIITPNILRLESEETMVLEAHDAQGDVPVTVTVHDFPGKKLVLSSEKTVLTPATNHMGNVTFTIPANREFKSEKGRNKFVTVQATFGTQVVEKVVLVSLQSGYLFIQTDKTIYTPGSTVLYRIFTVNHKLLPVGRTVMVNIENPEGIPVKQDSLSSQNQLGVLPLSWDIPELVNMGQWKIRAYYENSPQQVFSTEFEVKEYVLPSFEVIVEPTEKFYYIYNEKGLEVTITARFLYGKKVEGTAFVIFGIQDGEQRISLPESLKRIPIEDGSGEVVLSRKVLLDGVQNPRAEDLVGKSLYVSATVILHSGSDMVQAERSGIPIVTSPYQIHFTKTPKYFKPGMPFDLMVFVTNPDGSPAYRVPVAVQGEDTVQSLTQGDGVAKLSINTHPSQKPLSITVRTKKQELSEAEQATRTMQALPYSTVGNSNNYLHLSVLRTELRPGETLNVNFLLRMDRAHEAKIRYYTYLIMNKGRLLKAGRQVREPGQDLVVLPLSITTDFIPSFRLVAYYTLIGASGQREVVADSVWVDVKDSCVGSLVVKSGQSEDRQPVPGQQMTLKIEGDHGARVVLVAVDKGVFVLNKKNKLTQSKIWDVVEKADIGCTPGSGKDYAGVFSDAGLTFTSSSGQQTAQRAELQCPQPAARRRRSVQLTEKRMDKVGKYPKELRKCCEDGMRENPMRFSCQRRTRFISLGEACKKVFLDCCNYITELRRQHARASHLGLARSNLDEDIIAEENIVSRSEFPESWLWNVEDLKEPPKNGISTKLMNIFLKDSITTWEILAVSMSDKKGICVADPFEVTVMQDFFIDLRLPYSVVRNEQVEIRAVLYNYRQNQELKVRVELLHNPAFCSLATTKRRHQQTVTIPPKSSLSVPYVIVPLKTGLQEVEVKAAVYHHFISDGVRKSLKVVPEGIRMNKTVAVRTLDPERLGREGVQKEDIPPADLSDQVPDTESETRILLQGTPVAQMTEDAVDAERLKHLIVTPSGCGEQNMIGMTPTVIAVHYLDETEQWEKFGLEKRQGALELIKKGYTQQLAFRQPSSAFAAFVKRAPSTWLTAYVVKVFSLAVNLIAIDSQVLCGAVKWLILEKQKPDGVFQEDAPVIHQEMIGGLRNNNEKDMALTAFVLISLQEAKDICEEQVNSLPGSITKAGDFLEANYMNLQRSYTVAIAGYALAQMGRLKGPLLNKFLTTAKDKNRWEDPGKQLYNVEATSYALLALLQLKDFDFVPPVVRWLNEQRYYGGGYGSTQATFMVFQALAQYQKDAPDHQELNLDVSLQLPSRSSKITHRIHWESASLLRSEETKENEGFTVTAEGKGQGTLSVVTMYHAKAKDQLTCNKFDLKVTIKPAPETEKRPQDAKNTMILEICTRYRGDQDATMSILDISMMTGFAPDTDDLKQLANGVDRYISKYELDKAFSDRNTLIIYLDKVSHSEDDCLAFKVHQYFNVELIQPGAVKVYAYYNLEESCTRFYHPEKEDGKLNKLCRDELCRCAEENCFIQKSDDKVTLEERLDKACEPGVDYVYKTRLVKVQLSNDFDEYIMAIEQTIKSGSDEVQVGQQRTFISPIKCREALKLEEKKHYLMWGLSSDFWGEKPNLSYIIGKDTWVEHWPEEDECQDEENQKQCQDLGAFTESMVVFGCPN
Sequence of UniProt P53341 (whole entry, looked up): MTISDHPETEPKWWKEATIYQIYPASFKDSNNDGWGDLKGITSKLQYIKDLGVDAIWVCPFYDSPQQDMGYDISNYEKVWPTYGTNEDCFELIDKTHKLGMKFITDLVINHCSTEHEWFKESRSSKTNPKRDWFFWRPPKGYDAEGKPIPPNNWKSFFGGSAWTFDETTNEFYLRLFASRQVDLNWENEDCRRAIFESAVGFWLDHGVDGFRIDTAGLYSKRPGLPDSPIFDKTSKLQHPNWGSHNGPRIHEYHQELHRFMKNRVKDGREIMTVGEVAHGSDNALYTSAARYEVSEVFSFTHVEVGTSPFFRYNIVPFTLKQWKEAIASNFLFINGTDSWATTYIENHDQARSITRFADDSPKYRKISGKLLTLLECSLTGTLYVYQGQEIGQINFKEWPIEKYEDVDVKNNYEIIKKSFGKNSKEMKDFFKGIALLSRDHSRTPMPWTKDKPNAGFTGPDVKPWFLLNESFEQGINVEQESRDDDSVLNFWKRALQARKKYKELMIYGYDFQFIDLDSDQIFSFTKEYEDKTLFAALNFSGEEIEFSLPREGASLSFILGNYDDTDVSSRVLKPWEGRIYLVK
Sequence of UniProt Q04609 (whole entry, looked up): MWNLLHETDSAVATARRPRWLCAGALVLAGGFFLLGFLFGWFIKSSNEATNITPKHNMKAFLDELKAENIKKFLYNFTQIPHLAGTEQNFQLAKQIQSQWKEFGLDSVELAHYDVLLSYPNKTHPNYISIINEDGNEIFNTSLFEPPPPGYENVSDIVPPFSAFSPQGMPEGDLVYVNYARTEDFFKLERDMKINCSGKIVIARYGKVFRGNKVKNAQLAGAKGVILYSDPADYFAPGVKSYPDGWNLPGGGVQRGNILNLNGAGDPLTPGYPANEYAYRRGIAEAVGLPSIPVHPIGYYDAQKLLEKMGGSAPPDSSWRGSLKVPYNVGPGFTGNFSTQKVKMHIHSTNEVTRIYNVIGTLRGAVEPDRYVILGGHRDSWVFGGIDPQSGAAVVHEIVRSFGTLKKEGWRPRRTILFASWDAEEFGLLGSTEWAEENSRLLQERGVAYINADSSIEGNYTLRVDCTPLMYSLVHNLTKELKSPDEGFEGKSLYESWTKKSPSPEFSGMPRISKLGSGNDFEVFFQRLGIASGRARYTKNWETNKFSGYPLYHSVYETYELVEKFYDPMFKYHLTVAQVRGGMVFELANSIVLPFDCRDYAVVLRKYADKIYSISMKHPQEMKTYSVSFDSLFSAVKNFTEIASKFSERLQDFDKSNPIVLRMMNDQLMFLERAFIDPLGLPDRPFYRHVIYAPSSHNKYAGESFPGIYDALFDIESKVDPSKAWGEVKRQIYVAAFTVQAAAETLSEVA
Sequence of UniProt P21397 (whole entry, looked up): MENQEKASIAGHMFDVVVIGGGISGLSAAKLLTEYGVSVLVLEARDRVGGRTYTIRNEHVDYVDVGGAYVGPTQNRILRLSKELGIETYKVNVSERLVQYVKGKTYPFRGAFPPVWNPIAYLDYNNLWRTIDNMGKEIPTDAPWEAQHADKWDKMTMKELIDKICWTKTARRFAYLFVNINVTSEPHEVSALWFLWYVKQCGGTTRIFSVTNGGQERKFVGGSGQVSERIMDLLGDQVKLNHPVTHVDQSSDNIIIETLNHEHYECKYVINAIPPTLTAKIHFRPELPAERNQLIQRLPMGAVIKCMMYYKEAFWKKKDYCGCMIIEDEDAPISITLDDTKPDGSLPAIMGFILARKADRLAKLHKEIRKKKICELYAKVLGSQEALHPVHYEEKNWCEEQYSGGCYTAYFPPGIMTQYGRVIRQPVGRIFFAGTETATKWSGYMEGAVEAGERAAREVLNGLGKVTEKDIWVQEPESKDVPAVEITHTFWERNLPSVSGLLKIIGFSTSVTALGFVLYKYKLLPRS
Sequence of UniProt P62837 (whole entry, looked up): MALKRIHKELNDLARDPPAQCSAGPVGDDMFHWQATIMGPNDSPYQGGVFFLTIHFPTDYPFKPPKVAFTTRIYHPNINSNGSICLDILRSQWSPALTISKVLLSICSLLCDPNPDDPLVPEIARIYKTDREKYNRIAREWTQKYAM
Sequence of UniProt Q9NXA8 (whole entry, looked up): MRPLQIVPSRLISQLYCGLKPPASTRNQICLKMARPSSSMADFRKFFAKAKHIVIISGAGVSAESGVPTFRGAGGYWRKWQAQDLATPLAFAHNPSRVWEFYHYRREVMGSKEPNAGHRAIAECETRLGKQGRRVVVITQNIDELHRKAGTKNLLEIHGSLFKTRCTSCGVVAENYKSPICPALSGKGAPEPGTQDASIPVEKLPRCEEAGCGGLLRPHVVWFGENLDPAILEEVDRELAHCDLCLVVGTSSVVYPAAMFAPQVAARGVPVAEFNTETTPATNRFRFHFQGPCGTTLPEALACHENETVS
Sequence of UniProt P78417 (whole entry, looked up): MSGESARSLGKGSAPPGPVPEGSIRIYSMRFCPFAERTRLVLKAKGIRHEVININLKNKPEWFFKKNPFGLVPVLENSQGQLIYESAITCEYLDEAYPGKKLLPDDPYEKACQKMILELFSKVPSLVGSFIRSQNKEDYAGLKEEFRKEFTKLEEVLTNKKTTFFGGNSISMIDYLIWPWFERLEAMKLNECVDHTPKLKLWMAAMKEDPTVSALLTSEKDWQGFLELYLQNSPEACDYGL

SMILES	target	test	system	setting	scale	endpoint	value
C=CCOc1ccc(C[C@@H]2NC(=O)[C@H](C(C)C)NC(=O)[C@@H](NC(=O)[C@@H](NC(C)=O)[C@@H](C)CC)CSSC[C@@H](C(=O)N[C@H](C(N)=O)[C@@H](C)O)NC(=O)[C@H](CCCNC(=N)N)NC(=O)[C@H](Cc3c[nH]cn3)NC(=O)[C@H](C)NC(=O)CNC(=O)[C@H](Cc3c[nH]c4ccccc34)NC(=O)[C@H](CC(=O)O)NC(=O)[C@H](CCC(N)=O)NC2=O)cc1	Complement C3, C3b fragment (Homo sapiens, UniProt P01024)	SPR	–	pH 7.4, 25 °C	–	kon	530000 ± 130000 M⁻¹ s⁻¹
CC[C@H](C)[C@H](NC(=O)[C@@H]1CSSC[C@H](NC(=O)[C@@H](NC(C)=O)[C@@H](C)CC)C(=O)N[C@@H](C(C)C)C(=O)N[C@@H](Cc2cn(C)c3ccccc23)C(=O)N[C@@H](CCC(N)=O)C(=O)N[C@@H](CC(=O)O)C(=O)N[C@@H](Cc2c[nH]c3ccccc23)C(=O)N(C)CC(=O)N[C@@H](C)C(=O)N[C@@H](Cc2c[nH]cn2)C(=O)N[C@@H](CCCNC(=N)N)C(=O)N1)C(N)=O	Complement C3 (Homo sapiens, UniProt P01024)	ITC	PBS	concentration not given, pH 7.4, 25 °C	–	ΔH of binding	-14.1 kcal/mol
OC[C@H]1O[C@@H](Oc2ccc(-c3cn([C@@H]4O[C@H](CO)[C@@H](n5cc(CCCCc6cn([C@H]7[C@H](O)[C@@H](O)[C@H](n8cc(-c9ccc(O[C@@H]%10O[C@H](CO)[C@H](O)[C@H](O)[C@H]%10O)cc9)nn8)O[C@@H]7CO)nn6)nn5)[C@H](O)[C@H]4O)nn3)cc2)[C@H](O)[C@@H](O)[C@H]1O	lecA	isothermal titration calorimetry	–	298 K	–	-TΔS	7.2 ± 0.5 kcal/mol
O=C(CCl)N(CCNC(=O)C(F)(F)F)c1ccc([N+](=O)[O-])cc1	GSTO1 (Homo sapiens, UniProt P78417)	covalent inhibitor, LC-MS/MS	–	10 µM, enzyme 50 µM	baseline: total labelling	labelling at non-active-site cysteines	0 to 0.6%
O=C(COc1ccc2ccccc2c1)N[C@@H](Cc1cn(CCNC(=O)c2ccc(S[C@@H]3O[C@H](CO)[C@H](O)[C@H](O)[C@H]3O)cc2)nn1)C(=O)NCCO	lecA	isothermal titration calorimetry	–	concentration not given	–	binding stoichiometry	1.1 ± 0.1
O=C([O-])CN1CCN(CC(=O)[O-])CCN(C(CCC(=O)NCCCCCN(CCCC[C@H](NC(=O)N[C@@H](CCC(=O)O)C(=O)O)C(=O)O)C(=O)c2ccc(I)cc2)C(=O)O)CCN(CC(=O)[O-])CC1.[68Ga+3] (some centres unmarked)	FOLH1 (Homo sapiens, UniProt Q04609)	PET/CT	prostate cancer patients, primary prostate cancer lesions	–	baseline: primary lesions over kidneys	tumour-to-normal tissue ratio	1.11 ± 0.95
C=C1C(=O)O[C@@H]2[C@H]3C(CO)=CC(=O)C3=C(C)C[C@H](O)[C@@H]12	MAL12 (Saccharomyces cerevisiae S288c, UniProt P53341)	fluorescence quenching	–	concentration not given, 298 K	–	number of binding sites	1.04
C#CCCCOc1ccc(CN(C)CC#C)cc1	MAOA (Homo sapiens, UniProt P21397)	in situ probe labelling, LC-MS/MS	SH-SY5Y	unit not given	baseline: DMSO	enrichment	81
O=C1C=CC2(c3coc4cc(O)ccc4c3=O)c3cc(-c4coc5cc(O)ccc5c4=O)ccc3OC2C1 (centres unmarked)	laccase (Trametes versicolor)	substrate	–	product formation	–	Km	431 ± 32 µM
CCOC(=O)C1=CN([C@@H]2O[C@H](CO)[C@@H](O)[C@H]2O)C=CC1	SIRT5 (Homo sapiens, UniProt Q9NXA8)	desuccinylase activity, activator	–	concentration not given	–	activation	~2.8 fold
COC(=O)C1=Cc2ccccc2S1(=O)=O	Ubiquitin-conjugating enzyme E2 D2 (UBE2D2, Homo sapiens, UniProt P62837)	–	–	10 µM, 30 min, 37 °C	–	ubiquitin charging to E2	no effect

Repeated from above:
SMILES	target	test	system	setting	scale	endpoint	value
COC(=O)C1=Cc2ccccc2S1(=O)=O	Ubiquitin-conjugating enzyme E2 D2 (UBE2D2, Homo sapiens, UniProt P62837)	–	–	10 µM, 30 min, 37 °C	–	ubiquitin charging to E2	no effect
